Published values collected from several papers.
± marks the error that the study gave.

Compound = O=C(O)c1cccc(S(=O)(=O)Nc2ccccc2)c1; host = human, severe liver dysfunction; medium = plasma; route = intravenous; dose = 400 mg/m^2 belinostat; setting = 30 min infusion, cycle 1 day -7; half-life = 4.33 h
Compound = CC(C)(O)c1ncc([S@](N)(=O)=NC(=O)Nc2c3c(cc4c2CCC4)CCC3)s1; host = healthy human volunteers; medium = plasma; route = oral; dose = 50 mg twice daily; time = day 14; setting = fed, enteric-coated tablet; half-life = 16.2 h
Compound = O=C(CCc1ccc(CNC(C(=O)OC2CCCC2)C2CCCCC2)cn1)NO (stereo not shown); host = human; medium = plasma; route = oral; dose = 60 mg; setting = single dose, geometric mean; half-life = 0.5 h
Compound = Cc1nc(C)c(C=[N+]([O-])C(C)(C)C)nc1C; host = healthy Chinese human, both sexes; medium = serum; route = oral; dose = 1200 mg twice daily; time = 7 days; half-life = 2.3 h
Compound = CCCCCCCOc1ccc(CC[C@](N)(CO)COP(=O)(O)O)cc1C(F)(F)F; host = healthy male humans; medium = plasma; route = oral; dose = 0.125 to 0.75 mg; setting = mean; half-life = 376 to 404 h
Compound = Cn1c(=O)oc2ccc(-c3ccc(CC(C#N)NC(=O)C4CNCCCO4)c(F)c3)cc21 (stereo not shown); host = human; medium = plasma; dose = 40 mg once daily; time = day 28; setting = mean; half-life = 26.5 h
Compound = CC(=O)N[C@H](CC(=O)O)C(=O)N[C@H](Cc1c[nH]c2ccccc12)C(=O)N[C@H](Cc1ccccc1)C(=O)N[C@H](CCCCN)C(=O)N[C@H](C)C(=O)N[C@H](Cc1ccccc1)C(=O)N[C@H](Cc1ccc(O)cc1)C(=O)N[C@H](CC(=O)O)C(=O)N[C@H](CCCCN)C(=O)N[C@@H](C(=O)N[C@H](C)C(=O)N[C@H](CCC(=O)O)C(=O)N[C@H](CCCCN)C(=O)N[C@H](Cc1ccccc1)C(=O)N[C@H](CCCCN)C(=O)N[C@H](CCC(=O)O)C(=O)N[C@H](C)C(=O)N[C@H](Cc1ccccc1)C(N)=O)C(C)C; host = human, statin-treated high-risk CHD, both sexes; medium = plasma; route = oral; dose = 500 mg daily; time = day 13; setting = mean, detected subjects only; half-life = 1.99 h
Compound = NC(=O)/C=C/c1cccc(S(=O)(=O)Nc2ccccc2)c1; host = human, normal liver function; medium = plasma; route = intravenous; dose = 400 mg/m^2 belinostat; setting = 30 min infusion, cycle 1 day -7; half-life = 5.08 h
Compound = O=C(O[C@@H]1Cc2c(O)cc(O)cc2O[C@@H]1c1cc(O)c(O)c(O)c1)c1cc(O)c(O)c(O)c1; host = human, male; medium = plasma; route = oral; dose = 135 mg; setting = catechin-rich beverage; half-life = 2.1 ± 0.46 h
Compound = CONC(=O)/C=C/c1cccc(S(=O)(=O)Nc2ccccc2)c1; host = human, severe liver dysfunction; medium = plasma; route = intravenous; dose = 400 mg/m^2 belinostat; setting = 30 min infusion, cycle 1 day -7; half-life = 2.22 h
Compound = O=C(CCc1ccc(CNC(C(=O)O)C2CCCCC2)cn1)NO (stereo not shown); host = human; medium = plasma; route = oral; setting = multiple dose; half-life = < 1 h
Compound = O=C(O)/C=C/c1cccc(S(=O)(=O)Nc2ccccc2)c1; host = human, normal liver function; medium = plasma; route = intravenous; dose = 400 mg/m^2 belinostat; setting = 30 min infusion, cycle 1 day -7; half-life = 2.18 h
Compound = C=CC(=O)Nc1cc(Nc2nccc(-c3cn(C4CC4)c4ccccc34)n2)c(OC)cc1N(C)CCNC; host = healthy Chinese male human; medium = plasma; route = oral; dose = 110 mg almonertinib; setting = metabolite, [14C] single dose; half-life = 41.8 ± 3.93 h
